Experimental data of several laboratories.
Protocols differ between the studies behind these lines. Values joined by “and” are separate records of one study, mostly repeats; a detail may differ.
Proline--tRNA ligase: Proline--tRNA ligase (Plasmodium falciparum, UniProt Q8I5R7)
BIRC2 BIR3 domain: Baculoviral IAP repeat-containing protein 2, BIR3 domain (BIRC2, Homo sapiens, UniProt Q13490)
HDAC2: Histone deacetylase 2 (HDAC2, Homo sapiens, UniProt Q92769)
CA9: Carbonic anhydrase 9 (CA9, Homo sapiens, UniProt Q16790)
NOS3: Nitric oxide synthase 3 (NOS3, Bos taurus, UniProt P29473)

Structure (SMILES) | target | assay | system | setting | scale | selectivity ratio
Cc1cc(N2CCC(CO)(C3CC3)C2=O)cc(C(=O)NCc2cc(F)cc(-c3cnn(C)c3)c2)n1 (stereo not shown) | Proline--tRNA ligase | binding, microscale thermophoresis |  |  | reference: human over P. falciparum Kd | 10.3
O=C(O)C(=O)O.O=C(c1ccc(NCCF)cc1)C1CCN(C2Cc3ccccc3CC2O)CC1 (single isomer, unassigned; (-)) | sigma-1 receptor and VAChT | binding | guinea pig |  | reference: Ki VAChT over Ki sigma-1 | > 5000 and 6030
CN[C@@H](C)C(=O)N[C@H]1CN(C(=O)Cc2ccccc2)CC[C@H]2CC[C@@H](C(=O)NCc3ccccc3C(F)(F)F)N2C1=O | BIRC2 BIR3 domain | fluorescence polarization |  |  | reference: Ki XIAP over Ki cIAP1 | 175
N=C(N)NCCC[C@@H]1NC(=O)[C@H](Cc2c[nH]c3ccccc23)NC(=O)[C@H](CCCNC(=N)N)NC(=O)[C@H](Cc2c[nH]c3ccccc23)NC(=O)[C@H](CCCNC(=N)N)NC(=O)[C@H](Cc2c[nH]c3ccccc23)NC(=O)[C@H](CCCNC(=N)N)NC(=O)[C@H](Cc2c[nH]c3ccccc23)NC(=O)[C@H](CCCNC(=N)N)NC(=O)[C@H](Cc2c[nH]c3ccccc23)NC(=O)[C@H](CCCNC(=N)N)NC(=O)[C@H](Cc2c[nH]c3ccccc23)NC(=O)[C@H](CCCNC(=N)N)NC(=O)[C@H](Cc2c[nH]c3ccccc23)NC(=O)[C@H](CCCNC(=N)N)NC(=O)[C@H](Cc2c[nH]c3ccccc23)NC(=O)[C@H](CCCNC(=N)N)NC(=O)[C@H](Cc2c[nH]c3ccccc23)NC1=O | SRC (Homo sapiens, UniProt P12931) | enzyme activity |  |  | reference: IC50 Lck over IC50 SRC | 12
Cc1cc(N2CC[C@@](C#N)(C3CC3)C2=O)cc(NC(=O)Cc2ccccc2)n1 | Proline--tRNA ligase | binding, microscale thermophoresis |  |  | reference: human over P. falciparum Kd | 0.1
CN[C@@H](C)C(=O)N[C@H]1CN(C(=O)Cc2ccccc2)CC[C@H]2CC[C@@H](C(=O)NCc3cccc(F)c3)N2C1=O | BIRC2 BIR3 domain | fluorescence polarization |  |  | reference: Ki XIAP over Ki cIAP1 | 53
O=C(CCCCCCNCc1cccnc1)NO | HDAC2 | deacetylase activity, inhibitor, fluorescence |  | together with: Boc-Lys(Ac)-AMC substrate | reference: IC50 HDAC2 over IC50 HDAC1 | 7.4
Cc1ccc(C[C@H](NC(=O)CN2CCCc3cc4cc(C(=O)NCCNC(=O)CCCC[C@@H]5SC[C@@H]6NC(=O)N[C@@H]65)c(=O)oc4cc32)C(=O)NC/C=C/S(=O)(=O)c2ccccc2)cc1 | Cathepsin B (CTSB, Homo sapiens, UniProt P07858) | inhibitor |  | kinact/Ki | reference: rhodesain over target | 130
O=C(CCCCCCNCc1ccc(F)cc1)NO | HDAC2 | deacetylase activity, inhibitor, fluorescence |  | together with: Boc-Lys(Ac)-AMC substrate | reference: IC50 HDAC2 over IC50 HDAC1 | 6.8
CN[C@@H](C)C(=O)N[C@H]1CN(C(=O)Cc2ccccc2)CC[C@H]2CC[C@@H](C(=O)NCc3ccccc3)N2C1=O | BIRC2 BIR3 domain | fluorescence polarization |  |  | reference: Ki XIAP over Ki cIAP1 | 69
CC(C)C[C@H]1CN[C@H](C(N)=O)CSSC[C@@H](N)C(=O)N[C@@H](CCC(N)=O)C(=O)N[C@@H](Cc2c[nH]c3ccccc23)C(=O)N[C@@H](C)C(=O)N[C@@H](C(C)C)C(=O)N[C@H](C)C(=O)N[C@@H](Cc2c[nH]cn2)C(=O)N1 | GRPR (Homo sapiens, UniProt P30550) | binding, radioligand binding | transfected BALB/3T3 |  | reference: GRPR over NMBR affinity | > 5 fold
CN[C@@H](C)C(=O)N[C@H]1CN(C(=O)Cc2ccccc2)CC[C@H]2CC[C@@H](C(=O)NCc3ccc(-c4ccccc4)cc3)N2C1=O | BIRC2 BIR3 domain | fluorescence polarization |  |  | reference: Ki XIAP over Ki cIAP1 | 92
O=C(CCCCCCN(Cc1ccc2c(c1)OCO2)Cc1ccc2c(c1)OCO2)NO | HDAC2 | deacetylase activity, inhibitor, fluorescence |  | together with: Boc-Lys(Ac)-AMC substrate | reference: IC50 HDAC2 over IC50 HDAC1 | 8.4
COc1cc(-c2ccnc3nc(Nc4ccc(S(N)(=O)=O)cc4)nn23)cc(OC)c1OC | CA9 | inhibitor |  |  | reference: Ki hCA I over Ki CA9 | 16.7
CN[C@@H](C)C(=O)N[C@H]1CN(C(=O)Cc2ccccc2)CC[C@H]2CC[C@@H](C(=O)NCc3ccc(C(N)=O)cc3)N2C1=O | BIRC2 BIR3 domain | fluorescence polarization |  |  | reference: Ki XIAP over Ki cIAP1 | 239
COc1cncc(-c2cc(F)cc(CNC(=O)c3cc(N4CC[C@@](C#N)(C5CC5)C4=O)cc(C)n3)c2)c1 | Proline--tRNA ligase | binding, microscale thermophoresis |  |  | reference: human over P. falciparum Kd | 0.1
O=C(CCCCCCNCc1ccc(-c2ccccc2)s1)NO | HDAC2 | deacetylase activity, inhibitor, fluorescence |  | together with: Boc-Lys(Ac)-AMC substrate | reference: IC50 HDAC2 over IC50 HDAC1 | 14
Cc1cc(N)nc(C[C@H]2CNC[C@H]2OCCC/C=C/c2cccc(F)c2)c1 | NOS3 | enzyme activity, inhibitor |  |  | reference: Ki NOS3 over Ki nNOS | 4
O=C(CCCCCCN(Cc1ccc(F)cc1)Cc1ccc(F)cc1)NO | HDAC2 | deacetylase activity, inhibitor, fluorescence |  | together with: Boc-Lys(Ac)-AMC substrate | reference: IC50 HDAC2 over IC50 HDAC1 | 2.6
NS(=O)(=O)c1ccc(Nc2nc3nccc(-c4ccc5ccccc5c4)n3n2)cc1 | CA9 | inhibitor |  |  | reference: Ki hCA I over Ki CA9 | 102
CN(C)CCNC(=O)c1cccc2c(NCCCCc3c(N)nc(N)nc3N)c3ccccc3nc12 | RNA B, slipped CCUG motif | binding, ITC |  |  | reference: Kd RNA A over Kd RNA B | 0.04
CN[C@@H](C)C(=O)N[C@H]1CN(C(=O)Cc2ccccc2)CC[C@H]2CC[C@@H](C(=O)NCc3cccc(Br)c3)N2C1=O | BIRC2 BIR3 domain | fluorescence polarization |  |  | reference: Ki XIAP over Ki cIAP1 | 47
CCC[C@H]1CC[C@H](c2ccc(C(=O)NC[C@@H]3[C@@H](O)[C@@H](O)[C@H]4[C@H](O)CCCN43)cc2)CC1 | Alpha-mannosidase 2 (Homo sapiens, UniProt Q16706) | inhibitor |  | together with: fluorogenic mannoside substrate | reference: lysosomal over Golgi mannosidase Ki | 9.3
CN[C@@H](C)C(=O)N[C@H]1CN(C(=O)Cc2ccccc2)CC[C@H]2CC[C@@H](C(=O)NCc3cccc(C(F)(F)F)c3)N2C1=O | BIRC2 BIR3 domain | fluorescence polarization |  |  | reference: Ki XIAP over Ki cIAP1 | 117
Cc1cc(N)nc(C[C@@H]2CNC[C@@H]2OCCCCCc2cccc(F)c2)c1 | NOS3 | enzyme activity, inhibitor |  |  | reference: Ki NOS3 over Ki nNOS | 37
